Measured values pooled from the literature.
Protocols differ between the studies behind these lines. Several values in a cell are separate wells, animals, samples, runs or records. Numbers after ± are the reported error.
STING1 H232R: Stimulator of interferon genes protein (STING1, Homo sapiens, UniProt Q86WV6, H232R)

Structure (SMILES)	tested on	test	system	conditions	how to read	quantity	result
COC1CN([C@H]2CC[C@H]([C@@]3(C)Oc4c(Cl)cc(C(=O)NCc5c(SC)cc(C)[nH]c5=O)c(C)c4O3)CC2)C1	–	RNA-seq, measured: SEMA7A mouse homolog	mouse, HT-1376 xenograft, whole blood	dose not given	relative to: vehicle	log2 fold change	1.49
COc1ccccc1-c1ccncc1C(=O)Nc1nnc(OCc2ccc(Cl)cc2)s1	–	–	Brca1 Δ11/Δ11 MEF sgGFP, Mus musculus	5 µM, mean of runs 2, 3	relative to: 0 µM	colony survival	61.6%
CC(C)c1ccc(N(C)c2ccc3c(c2)OCC[C@H]3CNc2cnccc2C(=O)O)cc1	HCC1954	cell growth or viability, ATP luminescence	–	7 days	–	IC50	40.6 nM
CNC(=O)C1CCCN(C(=O)C2CC3CCC2N3C(=O)[C@@H]2C[C@@H](O)CN2C(=O)NCc2cccc(Cl)c2F)C1 (mixture of isomers)	Cytochrome P450 2D6 (CYP2D6, Homo sapiens, UniProt P10635)	enzyme activity, inhibitor, time-dependent inhibition	–	16.7 µM, preincubated without NADPH	relative to: negative control	remaining activity	102%
CC(=O)[O-].O.O.[O-]c1ccc(Br)cc1C=NCCN1CCOCC1.[Zn+2]	–	nitric oxide scavenging	–	80 µM	–	inhibition	17.2%
C=CC(=O)Nc1cccc(Cn2ncc3cnc(Nc4cnn(CCOC)c4)nc32)c1	TAOK2 human	binding, KINOMEscan	–	100 nM	lower = stronger binding	percent of control	82%
N=C(c1ccc([N+](=O)[O-])o1)N1CCC(NC(=O)c2cc(-c3ccc(F)cc3F)on2)(c2nc3ccccc3[nH]2)CC1	STING1 H232R	reporter gene, inhibitor	THP1-Dual KI-hSTING-R232	24 h, 1 h preincubation, added: diABZI 500 nM	–	EC50	1500 nM
CC(C)=CCc1cc(C(=O)/C=C/c2ccc(O)cc2)c(O)cc1O	–	phase I metabolism, substrate	human liver microsomes	added: NADPH	–	substrate inhibition constant	37.1 ± 6.86 µM
C=CC(=O)N1[C@@H](c2ccc3c(c2)OCO3)c2[nH]c3ccccc3c2C[C@H]1C(=O)N1CCN(C)CC1	human cyclin E1 N112C-3xFLAG:CDK2	co-IP with TMT proteomics, measured: THRAP3	–	concentration not given, Q9Y2W1	relative to: wild type DMSO	relative co-enrichment	144%
CN1CCCNC(=O)c2cccc(c2)C(=O)NCCCN(C)CCCNc2cccc3c2C(=O)c2cccc(c2C3=O)NCCC1	SAS	RNA-Seq, measured: EXT1 mRNA	–	1 µM, 6 h	relative to: untreated cells	log2 fold change	-1.44
OC(Cc1cc(-c2ccc(C(O)C(F)(F)F)s2)sc1-c1ccc(-c2sc(-c3ccc(C(O)C(F)(F)F)s3)cc2CC(O)C(F)(F)F)s1)C(F)(F)F (centres unmarked)	primary human fetal neurons	LC-MS/MS	–	4 µM, 120 min, replicate 3	–	amount in cell extract	0.02 nmol and 0.03 nmol
CCN(CC)CC(=O)Nc1cccc(-n2cc(-c3ccc4ccc(-c5cn(-c6cccc(NC(=O)CN(CC)CC)c6)nn5)cc4c3)nn2)c1	RCC4	PCR angiogenesis array, measured: THBS1	–	5 x IC50, 6 h, normoxia	relative to: untreated	fold regulation	-1.36 fold
Nc1ncc(-c2cc(-c3cnn(CC(F)(F)F)c3)ncc2F)nc1C(=O)NC1CNCC(F)C1 (centres unmarked)	PRKCQ	KINOMEscan	–	1 µM	relative to: DMSO control	remaining binding	89%
C=C(NC(=O)c1csc(-c2nc3c(cc2O)-c2nc(cs2)C(=O)NC(C(C)O)C(=O)NC(=C(C)OC)c2nc(cs2)C(=O)NC2c4nc(cs4)C(=O)NC(COC(=O)c4c5c6c(cccc6n4O)COC(=O)C(OC4CC(C)(O)C(N(C)C)C(C)O4)C2OC5)c2nc-3cs2)n1)C(N)=O (centres unmarked)	Streptococcus pneumoniae	–	-25, immunocompromised mice, lung	4 mg/kg/day thrice daily, 24 h post-dose	–	lung bacterial load	5.48 log10 CFU/lung
Cn1ncc2cc(-c3cncc(Cl)c3N3CCC4(CCNC4=O)CC3)ccc21	LS174T	gene expression, microarray, measured: CBWD1 mRNA	–	concentration not given, 24 h	relative to: untreated cells	log2 fold change	2.29
Cc1ncsc1-c1ccc(C(C)NC(=O)C2CC(O)CN2C(=O)C(NC(=O)CCCCCCCCCCN2CCCC(Nc3ncc(Cl)c(Nc4ccccc4S(=O)(=O)C(C)C)n3)C2)C(C)(C)C)cc1 (centres unmarked)	22Rv1	RNA-seq, measured: TRMT1L mRNA	–	concentration not given	relative to: DMSO	log2 fold change	-1.31
Cc1nn(-c2cccc(N)c2)c(=O)c2cnc(Nc3ccc(N4CCNCC4)cc3)nc12	MAP4K4 (Homo sapiens, UniProt O95819)	SelectScreen kinase	–	–	–	IC50	435 nM
O=C(N[C@@H](CCNC(=O)c1ccc([N+](=O)[O-])o1)c1nc2ccccc2[nH]1)c1ccc(-n2cccn2)cc1	STING1 H232R	reporter gene, inhibitor	THP1-Dual KI-hSTING-R232	24 h, 1 h preincubation, added: diABZI 500 nM	–	EC50	15700 nM
Cc1ccc(S(=O)(=O)NN)cc1	–	hydrazine ligation kinetics, absorbance	–	concentration not given, 50 s, added: 2-formylphenylboronic acid	–	normalised absorbance	0.896
CNS(=O)(=O)Nc1nccc(Cc2c(C)c3ccc(Oc4ncccc4F)cc3oc2=O)c1F	U2932	cell viability	–	7 days	–	IC50	20.4 nM

A few entries again:
Structure (SMILES)	tested on	test	system	conditions	how to read	quantity	result
Cn1ncc2cc(-c3cncc(Cl)c3N3CCC4(CCNC4=O)CC3)ccc21	LS174T	gene expression, microarray, measured: CBWD1 mRNA	–	concentration not given, 24 h	relative to: untreated cells	log2 fold change	2.29
COC1CN([C@H]2CC[C@H]([C@@]3(C)Oc4c(Cl)cc(C(=O)NCc5c(SC)cc(C)[nH]c5=O)c(C)c4O3)CC2)C1	–	RNA-seq, measured: SEMA7A mouse homolog	mouse, HT-1376 xenograft, whole blood	dose not given	relative to: vehicle	log2 fold change	1.49
